Measured values pooled from the literature.
Each numbered part is a random draw from the data of one study; scales do not carry over between parts.

Set 1
Target: Replicase polyprotein 1ab, nsp13 helicase (rep, Severe acute respiratory syndrome coronavirus 2, UniProt P0DTD1)
Action: inhibitor
Concentration: 20 µM
| SMILES | inhibition [%] |
| --- | --- |
| CCCCCCCCCCCCOCCOCCOCCOCCOCCOCCOCCOCCOCCO | 2.81 |
| CCCCOc1ccc(OCCCN2CCOCC2)cc1 | -1.66 |
| COc1ccc(NS(=O)(=O)c2ccc(N)cc2)nn1 | 3.02 |
| CCOP(=S)(OCC)Oc1cc(C)nc(C(C)C)n1 | 11.3 |
| Nc1nc(=O)n([C@@H]2O[C@H](CO)[C@@H](O)[C@@H]2F)cc1I | -1.01 |
| CC(C)CNc1ccnc(NCc2csc(-c3ccccc3)n2)n1 | -0.61 |
| CCc1cccc(CC)c1NC(=O)CN(CC(=O)O)CC(=O)O | -0.82 |
| CC(=O)NCC(=O)N1[C@@H]2CC[C@H]1c1ccc(Nc3ncc(C(F)(F)F)c(NC4CCC4)n3)cc12 | 0.31 |
| Cc1ncc[nH]1 | 2.25 |
| N[C@@H](CS(=O)O)C(=O)O | 1.01 |
| CNc1cc2c(Nc3cccc(Br)c3)ncnc2cn1 | -0.99 |
| Cc1ccc2c(Br)cc(Br)c(OC(=O)c3ccccc3)c2n1 | -7.79 |
| CCOc1nc2cccc(C(=O)O)c2n1Cc1ccc(-c2ccccc2-c2noc(=O)[nH]2)cc1 | 2.21 |
| Cc1ccc(Nc2c(F)cccc2Cl)c(CC(=O)O)c1 | -0.03 |
| CN(CCOc1ccc(C[C@H](Nc2ccccc2C(=O)c2ccccc2)C(=O)O)cc1)c1ccccn1 | 16.2 |
| COc1cc2nc(N(C)CCCNC(=O)C3CCCO3)nc(N)c2cc1OC (centres unmarked) | 7.81 |
| COc1ccc(C(C)(C)C)cc1CN[C@H]1C2CCN(CC2)[C@H]1C(c1ccccc1)c1ccccc1 | -2.88 |
| CCC(=O)OCC(=O)[C@@]1(OC(=O)CC)[C@H](C)C[C@H]2[C@H]3[C@H]([C@@H](O)C[C@@]21C)[C@@]1(C)C=CC(=O)C=C1C[C@H]3Cl | 3.23 |
| O=[N+]([O-])c1cn2c(n1)OC[C@@H](OCc1ccc(-c3ccc(OC(F)(F)F)cc3)nc1)C2 | -2.29 |
| NC(=O)OCC(O)COc1ccc(Cl)cc1 (centres unmarked) | 5 |
| COCc1c[n+]([O-])c(C)cn1 | 6.3 |
| CCOC(=O)c1cc(C#N)c(N2CCC(C(=O)NS(=O)(=O)Cc3ccccc3)CC2)nc1C | 7.75 |
| O=C(/C=C/c1cccc(F)c1)NC1CC1 | 2.57 |
| Cc1cc(-c2nc3cc(F)ccc3s2)ccc1NC(=O)[C@@H](N)CCCCN | 6.75 |
| NC(N)=NC(=O)c1cnccn1 | -5.65 |

Set 2
Target: Ras GTPase-activating protein-binding protein 1, RRM domain (G3BP1, Homo sapiens, UniProt Q13283)
Sequence of UniProt Q13283 (whole entry, looked up): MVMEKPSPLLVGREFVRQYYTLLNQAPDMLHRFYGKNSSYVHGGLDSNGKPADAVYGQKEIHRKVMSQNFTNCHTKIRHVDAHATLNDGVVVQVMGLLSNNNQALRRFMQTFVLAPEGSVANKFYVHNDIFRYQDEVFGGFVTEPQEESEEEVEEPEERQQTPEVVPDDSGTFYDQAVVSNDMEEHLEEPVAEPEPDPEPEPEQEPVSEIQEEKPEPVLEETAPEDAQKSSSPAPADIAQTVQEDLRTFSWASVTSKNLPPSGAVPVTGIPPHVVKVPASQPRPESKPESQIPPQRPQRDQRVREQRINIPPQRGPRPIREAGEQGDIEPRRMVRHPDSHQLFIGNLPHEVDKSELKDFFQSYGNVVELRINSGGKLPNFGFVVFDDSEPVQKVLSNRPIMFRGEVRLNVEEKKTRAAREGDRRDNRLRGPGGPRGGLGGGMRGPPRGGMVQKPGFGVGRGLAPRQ
Method: RNA Bind-n-Seq
Molecule type: RNA
Sample: in vitro
Concentration: 1 µM
Setting: whole 134-nt RNA, ends assumed
With: 150 mM KCl
Relative to: input library
Reading: higher = stronger binding
All sequences stand within: GGGAGUUCUACAGUCCGACGAUC … UGGAAUUCUCGGGUGUCAAGG
| Strand | log2 enrichment |
| --- | --- |
| AAGUCCUGUGCUACACAUCGUAUGUACCGAAUCGGGGUUUUUGGGGAGGGGUGGGGAAAGUAUUAUGUUACGCCGUUCGGAUCUGCACUU | 0.68 |
| CCUCAAGUCCUGUGCUACACAUCGUAUGUACCGAAUCGGGCGGCGGGGCGGGAAAGUAUUAUGUUACGCCGUUCGGAUCUGCACUUCCAG | 0.159 |
| AGUCCUGUGCUACACAUCGUAUGUACCGAAUCGGCCCCCCGGCCCCCCGGCCCCCCGGAAAGUAUUAUGUUACGCCGUUCGGAUCUGCAC | -0.671 |
| ACCAUGCAGGUGGGCAUCUUUGGGAAGUGGGGCAAGGGGGGGAUAGGGAGGGGGGUAACACUAAAGGAACAGGUGGUCCCAGGUCGUUUC | -0.322 |
| CCUCAAGUCCUGUGCUACACAUCGUAUGUACCGAAUCGGGUGGGUGGGUGGGGAAAGUAUUAUGUUACGCCGUUCGGAUCUGCACUUCCA | 0.934 |
| CAAGUCCUGUGCUACACAUCGUAUGUACCGAAUCGGUGGUUUUUGGAAAAAAAGGAAAGUAUUAUGUUACGCCGUUCGGAUCUGCACUUC | -0.111 |
| CCUGUGCUACACAUCGUAUGUACCGAAUCGGGAAAAAAAGGGUUUUUUUGGGUUUUUGGGAAAGUAUUAUGUUACGCCGUUCGGAUCUGC | -0.255 |
| UUUUGAGGAAAGGAUGAAGGAGCUCAGAGAAGAGGUAAGGGUCUCCUAUCCUUCCCCUCUCCCCCAGAUUUGAGUUUUAUGUUAUGAAUC | -0.113 |

Set 3
Target: Replicase polyprotein 1ab, main protease (rep, Severe acute respiratory syndrome coronavirus 2, UniProt P0DTD1)
Read-out: enzyme activity
Action: inhibitor
Concentration: 20 µM
Setting: hit confirmation
| Structure (SMILES) | inhibition |
| --- | --- |
| Oc1ccc2ccccc2c1SSc1c(O)ccc2ccccc12 | 98.5% |
| O=C(O[C@@H]1Cc2c(O)cc(O)cc2O[C@@H]1c1ccc(O)c(O)c1)c1cc(O)c(O)c(O)c1 | 3.9% |
| Cc1ccc(S(=O)(=O)c2ccc([N+](=O)[O-])o2)cc1 | 59% |
| N=C(N)N=Nc1ccc(NNC(=N)S)cc1 | 93.3% |

Set 4
Cell line: HEK-293T
Read-out: pseudovirus infection
Method: FDA-approved drug library screen
Organism: VSV pseudotyped with SARS-CoV-2 spike
Concentration: 10 µM
Time: 16 h
Relative to: vehicle-treated
| SMILES | GFP-positive cells [%] |
| --- | --- |
| CC[C@@H](C(N)=O)N1CCCC1=O | 80.9 |
| CNC[C@H](O)c1cccc(O)c1 | 71.9 |
| C#C[C@]1(OC(C)=O)CC[C@H]2[C@@H]3CCC4=C[C@@H](OC(C)=O)CC[C@@H]4[C@H]3CC[C@@]21C | 74.4 |
| CC(C)NCC(O)c1ccc(O)c(O)c1 (centres unmarked) | 110 |
| CCCCCCOC(=O)N=C(N)c1ccc(NCc2nc3cc(C(=O)N(CCC(=O)OCC)c4ccccn4)ccc3n2C)cc1 | 73.5 |

Set 5
Target: Sal-like protein 4, full length isoform B (SALL4, Homo sapiens, UniProt Q9UJQ4-2, residues 1-616)
Method: universal PBM
Molecule type: double-stranded DNA, one strand shown
Sample: in vitro
Concentration: not given
Setting: 8-mer, flanks averaged, mean of replicates
Reading: higher = stronger binding
Construct (chain): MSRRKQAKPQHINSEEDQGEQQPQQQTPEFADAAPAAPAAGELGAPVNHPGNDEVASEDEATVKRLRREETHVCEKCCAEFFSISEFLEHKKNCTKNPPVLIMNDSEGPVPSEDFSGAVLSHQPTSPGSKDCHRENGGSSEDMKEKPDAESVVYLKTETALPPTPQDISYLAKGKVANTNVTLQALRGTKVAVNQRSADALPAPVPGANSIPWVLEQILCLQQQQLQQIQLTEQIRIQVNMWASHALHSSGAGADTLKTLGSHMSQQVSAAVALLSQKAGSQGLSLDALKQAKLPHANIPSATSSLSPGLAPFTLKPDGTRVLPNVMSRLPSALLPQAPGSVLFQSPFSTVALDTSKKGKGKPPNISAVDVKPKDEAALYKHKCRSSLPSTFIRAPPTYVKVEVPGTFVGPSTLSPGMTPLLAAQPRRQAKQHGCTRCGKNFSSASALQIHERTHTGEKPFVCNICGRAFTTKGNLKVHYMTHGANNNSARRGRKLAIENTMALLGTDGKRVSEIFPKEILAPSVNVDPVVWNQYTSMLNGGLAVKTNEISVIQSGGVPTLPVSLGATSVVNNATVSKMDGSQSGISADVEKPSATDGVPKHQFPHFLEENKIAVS
| Strand | E-score |
| --- | --- |
| AAGGAGCC | -0.226 |
| GAACTATC | -0.00718 |
| TATAGCAA | 0.26 |
| AATAATGC | 0.324 |
| CGCACCCC | -0.26 |
| ACTCTATA | 0.212 |
| GGCGTACA | -0.164 |
| CTCTCGTC | -0.0981 |

A few entries again (set 5):
| Strand | E-score |
| --- | --- |
| TATAGCAA | 0.26 |
| GGCGTACA | -0.164 |
| CGCACCCC | -0.26 |
